Results from different studies.
Compare with care: the assays were run in different laboratories. ± gives the spread as reported. Converted amounts (≈) assume the structure as drawn.

| SMILES | tested on | assay | system | conditions | endpoint | result |
| --- | --- | --- | --- | --- | --- | --- |
| CC(=C(c1ccc(O)cc1)c1ccc(Cl)cc1)c1ccc(Cl)cc1 | IGROV-1 | cell growth or viability | – | – | GI50 | 0.84 µM |
| CN(C)c1cccc2c(S(=O)(=O)NCCCCCC(=O)NO)cccc12 | C4-2 | cell growth or viability, MTS | – | – | GI50 | 1.91 µM |
| CCCCC/C=C/C(=O)CCc1ccc(O)c(OC)c1 | mAb 5-3H1 | antibody binding, indirect competitive ELISA | – | with: coating antigen 1-OVA | IC50 | 0.441 µg/mL (≈ 1.6 µM) |
| [64Cu+2].c1cnc(CNCc2ccc(CN3CCCN4CCNCCCN(CC4)CC3)cc2)nc1 | CXCR4 | – | NOD/SCID mouse, U87 and U87-stb-CXCR4 xenografts, muscle | iv, 90 min, ex vivo | tissue uptake | 0.4 ± 0.05 %ID/g |
| COC1CN([C@H]2CC[C@H]([C@@]3(C)Oc4c(Cl)cc(C(=O)NCc5c(SC)cc(C)[nH]c5=O)c(C)c4O3)CC2)C1 | SW1710 | cell growth or viability, ATP luminescence | – | 12 days | GI50 | > 1 µM |
| COc1cc(CCC(C)=O)ccc1O | mAb 5-3H1 | antibody binding, indirect competitive ELISA | – | with: coating antigen 2-OVA | IC50 | > 4 µg/mL |
| CC/C=C\C/C=C\C/C=C\C/C=C\C/C=C\C/C=C\CCC(=O)Nc1ccn(C2OC(CO)C(O)C2(F)F)c(=O)n1 (stereo not drawn) | IGROV-1 | cell growth or viability, SRB | – | – | GI50 | 3.45 µM |
| CC(Cc1ccc(Cl)cc1)=C(c1ccc(Cl)cc1)c1ccc(OCCN(C)C)cc1 | SK-MEL-2 | cell growth or viability, SRB | – | – | GI50 | 5.69 µM |
| CC(=O)[O-].O.[Cu+2].[O-]c1ccc(Br)cc1C=NCCN1CCOCC1 | Candida albicans | – | – | 20 µL of 100 µM per disc | inhibition zone diameter | 14 mm |
| [64Cu+2].c1ccc(CNCc2ccc(CN3CCCN4CCNCCCN(CC4)CC3)cc2)nc1 | CXCR4 | – | NOD/SCID mouse, U87 and U87-stb-CXCR4 xenografts, blood | iv, 60 min, ex vivo | tissue uptake | 2.38 ± 0.2 %ID/g |
| Cn1cc(-c2cc(N3CCCCS3(=O)=O)ccc2N[C@H]2CC[C@H](C)CC2)c2cc[nH]c2c1=O (stereo in doubt) | Rec1 | cell growth or viability, CCK-8 | – | 72 h | GI50 | 0.0022 µM |
| C[n+]1ccc(/C=N/NC(=O)c2cncc(C(=O)N/N=C/c3cc[n+](C)c4ccccc34)n2)c2ccccc21 | MRC5 | cell growth or viability, ATP luminescence | – | 96 h | GI50 | 52.3 µM |
| CCC(=C(c1ccc(Cl)cc1)c1ccc(OCCCN(C)C)cc1)c1ccc(OC)cc1 | Hs-578T | cell growth or viability, SRB | – | – | GI50 | 7.08 µM |
| C1=[N+]2CCCC[N+]3=Cc4ccc5[n]4[Au-]23[n]2c1ccc2-c1nc2ccccc2nc1-5.F[P-](F)(F)(F)(F)F | melanoma cancer cell lines | – | – | NCI60 panel mean | GI50 | 8 µM |
| C[n+]1ccc(/C=N/NC(=O)c2cccc(C(=O)N/N=C/c3cc[n+](C)c4ccccc34)n2)c2ccccc21 | MRC5 | cell growth or viability, ATP luminescence | – | 96 h | GI50 | 24.8 µM |

For quick reference, copied from above:
| SMILES | tested on | assay | system | conditions | endpoint | result |
| --- | --- | --- | --- | --- | --- | --- |
| C[n+]1ccc(/C=N/NC(=O)c2cncc(C(=O)N/N=C/c3cc[n+](C)c4ccccc34)n2)c2ccccc21 | MRC5 | cell growth or viability, ATP luminescence | – | 96 h | GI50 | 52.3 µM |
| CCC(=C(c1ccc(Cl)cc1)c1ccc(OCCCN(C)C)cc1)c1ccc(OC)cc1 | Hs-578T | cell growth or viability, SRB | – | – | GI50 | 7.08 µM |
